Measured values gathered from unrelated publications.
Lines come from different studies, so protocols differ. Several values in a cell are separate wells, animals, samples, runs or records. ± gives the spread as reported.

CC(C)c1nc(N(C)S(C)(=O)=O)nc(-c2ccc(F)cc2)c1/C=C/[C@@H](O)C[C@@H](O)CC(=O)O — elimination rate constant (Wistar albino rat, both sexes, plasma; oral, 20 mg/kg): 7.78e-06 s⁻¹ and 1.83e-05 s⁻¹ and 3.33e-05 s⁻¹ and 4.72e-06 s⁻¹
C=CC(=O)N1CCC[C@@H](n2nc(-c3ccc(Oc4ccccc4)cc3)c3c(N)ncnc32)C1 — elimination half-life (Wistar rat, plasma; oral, dose not given, suspension): 3.41 ± 1.36 h
CCc1c(-c2ccccc2)c(-c2ccccc2)nn1-c1ccccc1-c1cccc(OCC(=O)O)c1 — elimination rate constant (Sprague-Dawley rat; oral): 6.42e-05 s⁻¹ and 6.52e-05 s⁻¹ and 5.87e-05 s⁻¹
Cc1cc(C)cc(C(=O)c2c(C(C)C)c(=O)[nH]c(=O)n2Cc2ccnc(N)c2)c1 — elimination rate constant (Sprague-Dawley rats, male, plasma; intravenous, 20 mg/kg): 0.000152 ± 9.78e-05 s⁻¹
Nc1nc(O)c2ncn(COC(CO)CO)c2n1 — elimination rate constant (Sprague-Dawley rat, male; oral, 10 mg/kg): 0.000108 ± 1.83e-05 s⁻¹
N#C[C@@]12C[C@@H]1[C@@H](n1cnc3c(N[C@@H](C4CCC4)C4CC4)nc(I)nc31)[C@H](O)[C@@H]2O — elimination rate constant (Wistar rats male, plasma; oral, 10.0 mg/kg): 0.00011 s⁻¹
O=C(O)c1cc(O)c(O)c(O)c1 — elimination rate constant (rat, plasma; oral, 500 mg/kg extract, extract): 7.78e-05 ± 2.78e-06 s⁻¹
C=CC(=O)N1CCC[C@@H](n2nc(-c3ccc(Oc4ccccc4)cc3)c3c(N)ncnc32)C1 — elimination rate constant (male Wistar rat, plasma; oral, 40 mg/kg): 7.67e-05 s⁻¹
O=c1oc2c(O)c(O)cc3c(=O)oc4c(O)c(O)cc1c4c23 — elimination rate constant (rat, plasma; oral, 1000 mg/kg extract, possible metabolite or extract component): 0.000108 ± 2.5e-05 s⁻¹
C=CC(=O)N1CCC(Oc2cc3c(Nc4ccc(Cl)c(Cl)c4F)ncnc3cc2OC)CC1 — elimination half-life (Sprague-Dawley rat, male, plasma; oral, 2 mg/kg, together with: vehicle pretreatment): 2.72 ± 0.85 h
O=C1C[C@@H](c2ccc(O)cc2)Oc2cc(O)cc(O)c21 — elimination rate constant (Sprague-Dawley rat, plasma; intravenous bolus, 1 mg/kg): 0.000117 ± 0.000147 s⁻¹
